{"data": "Published values from different studies", "note": "Every numbered part comes from another study and shows a few of its results, in no order. Values joined by “and” are separate records of one study, mostly repeats; a detail may differ."}
{"data": "Study 1", "target": "Interferon regulatory factor 5, full length, phosphomimetic (IRF5, Homo sapiens, UniProt Q13568-2, residues 1-514, K96S/S451D/S453D/S456D/S462D)", "technique": "protein-binding microarray", "molecule type": "double-stranded DNA, one strand shown", "medium": "in vitro", "tested at": "250 nM", "setting": "60-bp whole probe", "with": "salmon DNA 0.4 mg/ml", "relative to": "random background probes", "reading": "higher = stronger binding", "shared flanks, not repeated": "GCCTAGCAC … GTCTTGATTCGCTTGACGCTGCTG"}
{"Strand": "GACGGTATCCTTAGCCTGACGTGCTAG", "log fluorescence [z-score]": -0.22}
{"Strand": "TCAGGGCTCTTCTCTGAAACTGTGCTA", "log fluorescence [z-score]": -0.419}
{"Strand": "TTAGATCTTAGTATCGATTAGTGCTAG", "log fluorescence [z-score]": 6.76}
{"Strand": "GACGTTTTCAGTTTCGAGACGTGCTAG", "log fluorescence [z-score]": 7.4}
{"Strand": "AAGCCAGGACGAGCTCGCCTGTGCTAG", "log fluorescence [z-score]": -0.897}
{"Strand": "GACGGTTTCCTTGTCCTGACGTGCTAG", "log fluorescence [z-score]": 0.369}
{"Strand": "TCGTTTCCCAAGTTTATACCTGTGCTA", "log fluorescence [z-score]": 0.738}
{"Strand": "GACGAACTGGGGACTGTAGACGTGCTA", "log fluorescence [z-score]": -0.566}
{"data": "Study 2", "target": "RNA binding protein fox-1 homolog 2, RRM domain, GST-SBP tag (RBFOX2, Homo sapiens, UniProt O43251-10, residues 100-194)", "technique": "RNA Bind-n-Seq", "molecule type": "RNA", "medium": "in vitro", "tested at": "365 nM", "setting": "natural RNA segment, single round, ends assumed", "relative to": "no-protein control", "reading": "higher = stronger binding", "shared flanks, not repeated": "GGGAGUUCUACAGUCCGACGAUC … UGGAAUUCUCGGGUGCCAA", "Construct (chain)": "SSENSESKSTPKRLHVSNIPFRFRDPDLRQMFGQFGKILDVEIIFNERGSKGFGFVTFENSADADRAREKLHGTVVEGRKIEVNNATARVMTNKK"}
{"Strand": "UCCAUUUUGAAAGUGUCCCCGUGGUUGCACACUUCAGAGGACAGGGACUCUGUGUGUCUAAGAAGGCUGGGAUGAGGGCUCUGUUACAGGGCAGACUGUUCUCUCAUAGU", "RBNS enrichment (R)": 0.785}
{"Strand": "AGGGGCUAUGGGAACCGACAGAACAUGGGCUGUCUUCCCACAACACCACAGGACUGCAGGGUGCACAACUCCCCUGCCAAGGAAAACCAUGCAGUCCUCCCCUCCCUGGU", "RBNS enrichment (R)": 0.457}
{"Strand": "ACAAGUAGAAUAGCCAAUUAUUUAAAUGUUUAGUUGCCACAGUGAACCAGGAGUCACUGAGCCAAUGACUUUACCAGCUGCUGACUAAUCUUCAUCACCACUGUAGAUUU", "RBNS enrichment (R)": 0.536}
{"Strand": "CUAGAAUGUAAAUGAAGCUUGCUUGGAAGGGGAAAACUUUAAAUAAAACUUUAUGUAUAAAUUCAACGUCUCUCAUAGACCUCCUUAUAAAACACAUAUAGACUGGAUUA", "RBNS enrichment (R)": 1.26}
{"Strand": "AUGUUAAUAAAACUUCUUGUAACGGCUAACUGCCACCUAAAAUAUGCUGGGUUUUCUGUUGUUUGAGUGUGUUAGAGAAAUUUGAAUGUUUUUGUCAGUUACGAGUCAGC", "RBNS enrichment (R)": 1.28}
{"Strand": "UGAAAAAUGGGUGCUAGUGGUAAUUGCUUUGUGGCUUAGUAAACUACUCUGUGGAUGAUUUCCAAACAUUCAAAGCCAAUAGCCUUGUUAUUAACAAGAUAUUUUGAGUA", "RBNS enrichment (R)": 0.417}
{"Strand": "UCUGGGAUUUAGGGGGAGCCAACUCUUGGCCUUCCUUUGCUCCCUGACUGUCCUUACGUCCUCUCUGUUUAGAGUCUUAUUUAUUCUGCCCUUUUAACCAGUGCUGUGAU", "RBNS enrichment (R)": 0.346}
{"Strand": "AGGUAGCUCAGGGACCUCCACUGUGGGACCCUUGAGACGCUUCCACUCUGAUUCAGAAACACACUUCUACCUCUUUACUGUUAACUCUUAACAGAUGCAGUCAGCAGUUU", "RBNS enrichment (R)": 0.273}
{"data": "Study 3", "target": "Replicase polyprotein 1ab, 3C-like proteinase (rep, Middle East respiratory syndrome-related coronavirus, UniProt K9N7C7)", "read-out": "enzyme activity", "tested at": "10 µM"}
{"Structure (SMILES)": "CCN(CC)C(=S)SSC(=S)N(CC)CC", "inhibition [%]": 12}
{"Structure (SMILES)": "O=c1cc(-c2ccccc2)oc2cc(O)c(O)c(O)c12", "inhibition [%]": 47}
{"Structure (SMILES)": "Nc1ccc2cc3ccc(N)cc3nc2c1", "inhibition [%]": 37}
{"data": "Study 4", "target": "Histone acetyltransferase KAT6A, winged helix 2, GST fusion (KAT6A, Homo sapiens, UniProt Q92794, residues 85-181)", "technique": "protein binding microarray", "molecule type": "double-stranded DNA, one strand shown", "medium": "in vitro", "tested at": "not given", "setting": "8-mer, flanks averaged, mean of 2 arrays, mostly near background", "relative to": "not given", "reading": "higher = stronger binding", "Target sequence (chain)": "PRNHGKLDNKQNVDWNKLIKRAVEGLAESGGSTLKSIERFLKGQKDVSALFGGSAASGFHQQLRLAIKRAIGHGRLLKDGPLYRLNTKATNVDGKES"}
{"Strand": "AAAAAATA", "E-score": -0.0677}
{"Strand": "ACAGATTC", "E-score": -0.044}
{"Strand": "AGAGTTTA", "E-score": 0.172}
{"Strand": "CCCTCACG", "E-score": 0.131}
{"Strand": "ACCTCATC", "E-score": 0.0104}
{"Strand": "CTAAACTC", "E-score": -0.0419}
{"Strand": "GATAACTA", "E-score": -0.125}
{"Strand": "CACCGCAC", "E-score": 0.11}
{"data": "Study 5", "target": "Replicase polyprotein 1ab, nsp13 helicase (rep, Severe acute respiratory syndrome coronavirus 2, UniProt P0DTD1)", "action": "inhibitor", "tested at": "20 µM"}
{"SMILES": "COc1ccc(CC2NCCc3cc(OC)c(OC)cc32)cc1OC (stereo not shown)", "inhibition": "2.71%"}
{"SMILES": "O=C(O)COc1nn(Cc2ccccc2)c2ccccc12", "inhibition": "3.67%"}
{"SMILES": "O=C(O)C1=CCCN(CCON=C(c2ccccc2)c2ccccc2)C1", "inhibition": "6.96%"}
{"SMILES": "NC(=O)c1ccc[n+]([C@@H]2O[C@H](COP(=O)([O-])OP(=O)(O)OC[C@H]3O[C@@H](n4cnc5c(N)ncnc54)[C@H](O)[C@@H]3O)[C@@H](O)[C@H]2O)c1", "inhibition": "-0.72% and 7.75%"}
{"SMILES": "C1CCN2C[C@@H]3C[C@@H](CN4CCCC[C@@H]34)[C@H]2C1", "inhibition": "2.97%"}
{"SMILES": "COC(=O)Nc1ccc2[nH]cc(CCNC(C)=O)c2c1", "inhibition": "6.67%"}
{"SMILES": "O=C1CCC2CCC(=O)N12", "inhibition": "-0.16%"}
{"SMILES": "O=CC[C@@H](O)[C@H](O)[C@H](O)CO", "inhibition": "1.59%"}
{"SMILES": "C[C@@H]1NC(=O)[C@@H]2CCCN2C(=O)[C@H](CC(N)=O)NC(=O)[C@@H]2CSSC[C@H](N)C(=O)N[C@H]3CSSC[C@H](NC1=O)C(=O)N[C@@H]([C@@H](C)O)C(=O)NCC(=O)N[C@H](C(=O)N[C@@H](Cc1ccc(O)cc1)C(=O)O)CSSC[C@H](NC(=O)[C@H](Cc1ccc(O)cc1)NC(=O)[C@H](CCC(=O)O)NC3=O)C(=O)N2", "inhibition": "28.4%"}
{"SMILES": "COc1cc(N2CCN(C)CC2)ccc1Nc1nccc(-c2cn(C)c3cnccc23)n1", "inhibition": "44.4%"}
{"SMILES": "CC(C)(C)CC(C)(C)c1ccc(O)c(Cc2ccc(Cl)cc2Cl)c1", "inhibition": "2.8%"}
{"SMILES": "CCCC(=O)Nc1ncnc2c1ncn2[C@@H]1O[C@@H]2COP(=O)(O)O[C@H]2[C@H]1OC(=O)CCC", "inhibition": "0%"}
{"SMILES": "O=c1n(CC2CO2)c(=O)n(CC2CO2)c(=O)n1CC1CO1 (stereo not shown)", "inhibition": "3.71%"}
{"SMILES": "COc1ccc([C@@H]2CC(=O)c3c(O)cc(O[C@@H]4O[C@H](CO)[C@@H](O)[C@H](O)[C@H]4O[C@@H]4O[C@@H](C)[C@H](O)[C@@H](O)[C@H]4O)cc3O2)cc1O", "inhibition": "5.65%"}
{"SMILES": "CS/C(N)=C(C#N)/C(C#N)=C(\\N)SC", "inhibition": "3.83%"}
{"SMILES": "OC(c1ccc(-c2ccc(CN3CCN(Cc4ccncc4)CC3)cc2)c(F)c1)(C(F)(F)F)C(F)(F)F", "inhibition": "7.66%"}
{"SMILES": "CCCCn1c(=O)c2[nH]c(C34CC5CC(CC3C5)C4)nc2n(CCCO)c1=O", "inhibition": "-0.82%"}
{"SMILES": "N=C(N)Nc1ccc(C(=O)Oc2ccc3cc(C(=N)N)ccc3c2)cc1", "inhibition": "15.8%"}
{"SMILES": "CN1CCC(=C2c3ccccc3CCn3c(C=O)cnc32)CC1", "inhibition": "-2.71%"}
{"SMILES": "Nc1nc(=O)c2sc(=O)n([C@@H]3O[C@H](CO)[C@@H](O)[C@H]3O)c2[nH]1", "inhibition": "6.81%"}
{"SMILES": "Cc1cc(Nc2ncnc3ccc(-c4ccc(CNCCS(C)(=O)=O)o4)cc23)ccc1Oc1ccn2ncnc2c1", "inhibition": "11.6%"}
{"SMILES": "C[C@@H]1CN(Cc2ccc(F)cc2)CCN1C(=O)COc1ccc(Cl)cc1NC(N)=O", "inhibition": "5.6%"}
{"SMILES": "COc1ccc2nc(NC(=O)Nc3ccccc3)sc2c1", "inhibition": "8.56%"}
{"SMILES": "Nc1ccc(C(=O)NCC(=O)O)cc1", "inhibition": "6.7%"}
{"data": "Single results of other studies"}
{"Structure (SMILES)": "C[C@@H]1CCO[C@H]2Cn3cc(C(=O)NCc4ccc(F)cc4F)c(=O)c([O-])c3C(=O)N12.[Na+]", "tested on": "HEK-293T-ACE2", "conditions": "concentration not given", "how to read": "relative to: vehicle", "endpoint": "cell number", "value": "105%"}
{"Structure (SMILES)": "NCCCCCC(=O)O", "tested on": "HEK-293T", "assay": "pseudovirus infection, FDA-approved drug library screen", "system": "VSV pseudotyped with SARS-CoV-2 spike", "conditions": "10 µM, 16 h", "how to read": "relative to: vehicle-treated", "endpoint": "GFP-positive cells", "value": "76.2%"}
{"Structure (SMILES)": "COc1cc([C@@H]2c3cc4c(cc3[C@@H](O[C@@H]3O[C@@H]5CO[C@@H](c6cccs6)O[C@H]5[C@H](O)[C@H]3O)[C@H]3COC(=O)[C@H]23)OCO4)cc(OC)c1O", "tested on": "HEK-293T", "assay": "pseudovirus infection, FDA-approved drug library screen", "system": "VSV pseudotyped with SARS-CoV-2 spike", "conditions": "10 µM, 16 h", "how to read": "relative to: vehicle-treated", "endpoint": "GFP-positive cells", "value": "64.3%"}
{"Structure (SMILES)": "S=c1nc[nH]c2nc[nH]c12", "tested on": "Vesicular stomatitis virus", "assay": "pseudovirus infection, FDA-approved drug library screen", "conditions": "concentration not given, SARS-CoV-2 spike pseudotype", "how to read": "relative to: vehicle", "endpoint": "GFP-positive cells", "value": "91.6%"}
{"note": "A few entries again (study 5):"}
{"SMILES": "CC(C)(C)CC(C)(C)c1ccc(O)c(Cc2ccc(Cl)cc2Cl)c1", "inhibition": "2.8%"}
{"SMILES": "COC(=O)Nc1ccc2[nH]cc(CCNC(C)=O)c2c1", "inhibition": "6.67%"}
{"SMILES": "COc1cc(N2CCN(C)CC2)ccc1Nc1nccc(-c2cn(C)c3cnccc23)n1", "inhibition": "44.4%"}
{"SMILES": "NC(=O)c1ccc[n+]([C@@H]2O[C@H](COP(=O)([O-])OP(=O)(O)OC[C@H]3O[C@@H](n4cnc5c(N)ncnc54)[C@H](O)[C@@H]3O)[C@@H](O)[C@H]2O)c1", "inhibition": "-0.72% and 7.75%"}
{"SMILES": "Nc1nc(=O)c2sc(=O)n([C@@H]3O[C@H](CO)[C@@H](O)[C@H]3O)c2[nH]1", "inhibition": "6.81%"}
{"SMILES": "O=C(O)C1=CCCN(CCON=C(c2ccccc2)c2ccccc2)C1", "inhibition": "6.96%"}
